Results pooled from the literature.
Lines come from different studies, so protocols differ.

Compound | method | sample | time | pH | temperature | notes | solubility
C/C(N)=N/C(=N\S(=O)(=O)c1ccc(C(F)(F)F)cc1)N1C[C@H](c2ccccc2)C(c2ccc(Cl)cc2)=N1 | – | simulated gastric fluid | – | pH 1.2 | – | – | 7 µM
Cc1ncc2[nH]c(=O)n(-c3cnc(Oc4cccc5c4C(C)(C)CO5)c(Cl)c3)c2n1 | – | aqueous buffer | – | pH 7 | – | – | 32 µM
CN(C)C(=O)c1cccc(N2Cc3cnn(Cc4ccc(F)cc4)c3C2)c1 | – | water | – | – | – | – | 65 µM
Clc1cccc(Nc2nc(NCc3ccccc3)c3ccccc3n2)c1 | – | aqueous buffer | – | pH 6.2 | – | – | 1e-05 mg/mL
O=C(CCCCCCCCCCCCCCCCC(=O)Oc1c2n(cc(C(=O)NCc3c(F)cc(F)cc3F)c1=O)CC1OC3CCC(C3)N1C2=O)Oc1c2n(cc(C(=O)NCc3c(F)cc(F)cc3F)c1=O)CC1OC3CCC(C3)N1C2=O (stereo not drawn) | – | water | 24 h | – | – | – | 0.00196 mg/mL
CC1=Cc2cc(Cl)ccc2OC12Oc1ccc(Cl)cc1C=C2C | absorbance | water | – | – | – | – | 0.01 mg/mL
CCCCN1/C(=C/c2cc(/C=C/c3ccc(N(c4ccccc4)c4ccccc4)cc3)[n+](C)c3ccccc23)Sc2ccccc21 | HPLC | water | 24 h | – | 25 °C | – | 89 µM
CN(C)C(=O)c1ccnc(N2Cc3cn(Cc4ccc(F)cc4)nc3C2)n1 | – | water | – | – | – | – | > 100 µM
CCC1(CC)CC(=O)N(C2CCOc3ccc(C(=O)NC4CC(C)(C)Oc5ccccc54)cc32)C(=N)N1 (stereo not drawn) | – | aqueous buffer | – | pH 7 | – | – | ≥ 100 µM
Cc1cc(C)nc(NC(=S)N2CCN(c3ccc(C(F)(F)F)cn3)CC2)c1 | – | PBS | 6 h | pH 7.4 | – | – | 1.23 µM
O=c1[nH]c2cccnc2n1-c1ccc2c(c1)OC1(CCCCC1)O2 | – | aqueous buffer | – | pH 7 | – | – | < 2 µM
O=C(CN1CN(c2ccc(Cl)c(Cl)c2)C2(CCN(C(=O)c3ccc4[nH]ncc4c3)CC2)C1=O)NCC(F)(F)F | – | aqueous buffer | – | pH 6.5 | – | – | 2300 mg/mL
Cc1[nH]nc2c1N=C(c1ccccc1Cl)c1cnc(N3CCOCC3)cc1N2 | – | simulated gastric fluid | – | pH 1 | – | acidic | 4.52 mg/mL
CN(C)C(=O)c1ccnc(N2Cc3cn(Cc4ccc(F)cc4F)nc3C2)n1 | – | water | – | – | – | – | > 100 µM
O=C(Nc1cc(-c2ccnc3[nH]ccc23)c(Cl)cn1)[C@H]1CCC[C@@H](NC(=O)C(F)(F)F)C1 | – | FaSSIF | – | pH 6.8 | – | – | 24.2 µM
COCCN(C)CC(=O)NC(Cc1ccc(-c2ccccc2)cc1)B(O)O (stereo not drawn) | nephelometry | aqueous buffer | – | pH 6.8 | – | – | > 200 µM
Brc1cccc(CNc2nc(NCc3ccccc3)c3ccccc3n2)c1 | – | aqueous buffer | – | pH 5 | – | – | 0.00037 mg/mL

Compound | method | sample | time | pH | temperature | notes | solubility
OCC1OC(n2cnc3c(NCc4ccc(Br)s4)ncnc32)C(O)C1O (stereo not drawn) | – | aqueous buffer | – | pH 6.8 | – | – | 0.25 mg/mL
O=c1c2ccccc2[se]n1CCCCCCn1[se]c2ccccc2c1=O | HPLC | simulated gastric fluid | 24 h | pH 1.2 | 25 °C | acidic | 0.0022 mg/mL
Cc1cc(/C=C2\Sc3ccccc3N2CCCN2CCCC2)c2ccccc2[n+]1C | HPLC | water | 24 h | – | 25 °C | – | 6360 µM
O=C(NO)c1ccc(/N=N/c2ccccc2)cc1 | – | water | – | – | – | – | < 2 µM
COc1cccc2c(NCc3ccccc3)nc(Nc3cccc(Cl)c3)nc12 | – | aqueous buffer | – | pH 7.4 | – | – | < 1e-05 mg/mL
N#Cc1cccc(N2CN(CC(=O)NCC(F)(F)F)C(=O)C23CCN(C(=O)c2cnc4[nH]ncc4c2)CC3)c1 | – | aqueous buffer | – | pH 6.5 | – | – | 1500 mg/mL
COc1ncc2nc(C)n(Cc3ncc(S(N)(=O)=O)cc3F)c2c1-c1ccccc1 | – | aqueous buffer | – | pH 7.4 | – | – | 65.6 µM
COc1ccc(C(=O)n2c(C)c(Cc3cccc(O[C@@H](C)C(=O)O)c3)c3cc(OC(F)(F)F)ccc32)cc1 | – | aqueous buffer | – | pH 7.4 | – | – | ~75 µM
CC(=Nc1ccc(N)cc1)N(C)C | shake flask | PBS | 24 h | pH 7.4 | 25 °C | – | 1.05 mg/mL
CC1=Cc2ccccc2OC12Oc1ccccc1C=C2C | absorbance | water | – | – | – | – | 0.00693 mg/mL
COc1cccc2c(NCc3ccccc3)nc(Nc3cccc(F)c3)nc12 | – | aqueous buffer | – | pH 7.4 | – | – | < 1e-05 mg/mL
Cc1ccc2c(c1)nc(NC(=O)c1cccc(C(F)(F)F)c1)n2[C@H]1CC[C@H](N)CC1 | – | aqueous buffer | – | – | – | – | 32.9 µM
CN(C)C(=O)c1cncc(N2Cc3cn(Cc4ccc(F)cc4)nc3C2)n1 | – | water | – | – | – | – | 65 µM
CN1CCC[C@@H]1C(=O)N[C@@H](Cc1ccc(-c2ccccc2)cc1)B(O)O | nephelometry | aqueous buffer | – | pH 6.8 | – | – | > 200 µM
CN(C)C(=O)c1ccnc(N2Cc3cn(Cc4cc(F)cc(F)c4)nc3C2)n1 | – | water | – | – | – | – | > 100 µM
CSCC[C@H](NC(=O)[C@@H](CCCCN)NC(=O)[C@H](CC(C)C)NC(=O)[C@@H](CC(N)=O)NC(=O)[C@H](CCSC)NC(=O)[C@H](NC(=O)[C@H](Cc1c[nH]c2ccccc12)NC(=O)CNC(=O)[C@H](CO)NC(=O)[C@H](Cc1ccc(O)cc1)NC(=O)[C@H](CCC(=O)O)NC(=O)[C@H](CC(N)=O)NC(=O)[C@H](CCSC)NC(=O)[C@@H](Cc1c[nH]c2ccccc12)NC(=O)[C@H](CO)NC(=O)[C@@H](CC(C)C)NC(=O)[C@H](CC(N)=O)NC(=O)[C@@H](CCSC)NC(=O)[C@H](CCC(=O)O)NC(=O)CNC(=O)[C@@H](N)CCCNC(=N)N)[C@H](C)O)C(=O)NCC(=O)N[C@@H](CCCNC(=N)N)C(=O)O | – | water | – | – | – | – | > 25 mg/mL

Some of these lines once more:
Compound | method | sample | time | pH | temperature | notes | solubility
CN(C)C(=O)c1cncc(N2Cc3cn(Cc4ccc(F)cc4)nc3C2)n1 | – | water | – | – | – | – | 65 µM
CN1CCC[C@@H]1C(=O)N[C@@H](Cc1ccc(-c2ccccc2)cc1)B(O)O | nephelometry | aqueous buffer | – | pH 6.8 | – | – | > 200 µM
CN(C)C(=O)c1ccnc(N2Cc3cn(Cc4cc(F)cc(F)c4)nc3C2)n1 | – | water | – | – | – | – | > 100 µM
CSCC[C@H](NC(=O)[C@@H](CCCCN)NC(=O)[C@H](CC(C)C)NC(=O)[C@@H](CC(N)=O)NC(=O)[C@H](CCSC)NC(=O)[C@H](NC(=O)[C@H](Cc1c[nH]c2ccccc12)NC(=O)CNC(=O)[C@H](CO)NC(=O)[C@H](Cc1ccc(O)cc1)NC(=O)[C@H](CCC(=O)O)NC(=O)[C@H](CC(N)=O)NC(=O)[C@H](CCSC)NC(=O)[C@@H](Cc1c[nH]c2ccccc12)NC(=O)[C@H](CO)NC(=O)[C@@H](CC(C)C)NC(=O)[C@H](CC(N)=O)NC(=O)[C@@H](CCSC)NC(=O)[C@H](CCC(=O)O)NC(=O)CNC(=O)[C@@H](N)CCCNC(=N)N)[C@H](C)O)C(=O)NCC(=O)N[C@@H](CCCNC(=N)N)C(=O)O | – | water | – | – | – | – | > 25 mg/mL
